# Measured values of several laboratories.
# A part holds a random share of what one study measured. Substitutions count along the parent as printed.
# Chain of UniProt O15294 (whole entry, looked up): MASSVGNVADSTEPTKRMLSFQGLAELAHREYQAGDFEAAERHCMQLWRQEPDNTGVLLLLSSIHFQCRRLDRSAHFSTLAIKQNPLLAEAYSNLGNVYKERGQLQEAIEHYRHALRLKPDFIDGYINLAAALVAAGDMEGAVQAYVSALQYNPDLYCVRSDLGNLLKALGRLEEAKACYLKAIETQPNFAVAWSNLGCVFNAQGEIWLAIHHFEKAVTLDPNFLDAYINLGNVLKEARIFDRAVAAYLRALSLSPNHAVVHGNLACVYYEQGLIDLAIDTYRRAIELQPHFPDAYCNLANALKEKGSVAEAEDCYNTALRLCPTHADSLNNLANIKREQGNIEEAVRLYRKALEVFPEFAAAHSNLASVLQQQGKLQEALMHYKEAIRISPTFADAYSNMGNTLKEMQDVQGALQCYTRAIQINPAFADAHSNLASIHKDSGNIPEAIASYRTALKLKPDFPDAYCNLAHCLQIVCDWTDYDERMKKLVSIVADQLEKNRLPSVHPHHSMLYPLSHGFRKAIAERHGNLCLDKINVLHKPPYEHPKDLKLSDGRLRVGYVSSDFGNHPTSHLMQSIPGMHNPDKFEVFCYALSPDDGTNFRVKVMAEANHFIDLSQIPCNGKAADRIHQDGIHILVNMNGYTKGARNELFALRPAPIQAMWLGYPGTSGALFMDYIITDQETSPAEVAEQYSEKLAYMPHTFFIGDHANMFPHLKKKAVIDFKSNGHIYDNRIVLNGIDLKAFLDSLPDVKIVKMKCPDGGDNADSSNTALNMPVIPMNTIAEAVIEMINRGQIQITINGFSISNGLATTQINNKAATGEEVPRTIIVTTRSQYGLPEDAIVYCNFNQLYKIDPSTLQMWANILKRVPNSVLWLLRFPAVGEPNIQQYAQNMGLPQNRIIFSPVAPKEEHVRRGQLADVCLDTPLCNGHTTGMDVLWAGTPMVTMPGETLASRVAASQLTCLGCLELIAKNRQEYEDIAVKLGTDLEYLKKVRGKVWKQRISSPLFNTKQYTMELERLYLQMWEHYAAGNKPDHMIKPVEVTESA

# Sample 1 — method: protein-binding microarray; molecule type: hairpin DNA; matrix: in vitro; tested at: not given; reference: not given; direction: higher = stronger binding
# Target: Runt-related transcription factor 1, full length (RUNX1, Homo sapiens, UniProt Q01196-8, residues 1-480)
# Setting: whole hairpin DNA, median over replicate spots
Oligonucleotide,median fluorescence
GAGGCCTGTTGGGGTTGGCCTCCTGGCCAACCCCAACAGGCCTCACACTC (5mC at 33),1850 a.u.
CTCAGTTCTGTGGCGTGGACTCCTGTCCACGCCACAGAACTGAGACACTC (5mC at 14 30),2020 a.u.
GAGGCCCCGCCGCAACAGCCTCCTGGCTGTTGCGGCGGGGCCTCACACTC (5mC at 8),2440 a.u.
GAGGCCTCGTGTGGTTGGCCTCCTGGCCAACCACACGAGGCCTCACACTC (5mC at 36),2170 a.u.
CTCAGTTCTGTGGACTGGACTCCTGTCCAGTCCACAGAACTGAGACACTC,1730 a.u.
GAGGCCTGTCGCGATTGGCCTCCTGGCCAATCGCGACAGGCCTCACACTC,1620 a.u.
GAGGCCTGTTGCCGTTGGCCTCCTGGCCAACGGCAACAGGCCTCACACTC (5mC at 31),1750 a.u.
GAGGCCTGTCGCGGTTGGCCTCCTGGCCAACCGCGACAGGCCTCACACTC (5mC at 31),1700 a.u.

# Sample 2 — target: ATF2, bZIP domain (human); method: DHFR protein complementation; matrix: yeast; reference: wild-type JUN-FOS pair; direction: higher = stronger binding
# Setting: single substitutions, most at no-binding floor
# Parent: JUN, bZIP domain (human); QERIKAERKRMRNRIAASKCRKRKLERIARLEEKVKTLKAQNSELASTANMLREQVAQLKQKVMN; partner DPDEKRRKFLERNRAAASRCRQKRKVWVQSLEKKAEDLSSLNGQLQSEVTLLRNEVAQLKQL
Substitution,binding fitness
S47N,-1.29 natural log
V56K,-1.51 natural log
R30L,-1.35 natural log
N42M,-1.49 natural log
K39I,-1.4 natural log
L31T,-1.48 natural log
A29Q,-1.22 natural log
Q41E,-1.36 natural log

# Sample 3 — method: RNA Bind-n-Seq; molecule type: RNA; matrix: in vitro; tested at: 365 nM; reference: no-protein control; direction: higher = stronger binding
# Target: RNA binding protein fox-1 homolog 2, RRM domain, GST-SBP tag (RBFOX2, Homo sapiens, UniProt O43251-10, residues 100-194)
# Setting: natural RNA segment, single round, ends assumed
# All sequences stand within: GGGAGUUCUACAGUCCGACGAUC … UGGAAUUCUCGGGUGCCAA
# Target sequence (chain): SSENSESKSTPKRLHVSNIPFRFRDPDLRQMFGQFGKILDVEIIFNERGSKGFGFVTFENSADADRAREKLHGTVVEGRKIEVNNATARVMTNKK
Oligonucleotide,RBNS enrichment (R)
UUAUUAUUAUGUUAUCAGUAAUCACUGGCAAAAAAAAAAAAAACAAUGGCCAGGUACUACACUGUCGGGGAUUAUAGGUGGACUAACCACGUCUCUGCCUCCUAAAUUCC,0.541
AGCAGUGUCUCCUGCCAGAACUCCUCACCCAGGAUGAAUGUGUUUACUCCACGCUGUAUAUCUUUCCAUGCUCCGGCUGCCUGGACCAGUAAAUAAAAUGGAUGUAAUAU,0.407
CCCUUUAAAGUCAUGUUGACUAAUGUUUUCCUCCUUGUUUGUAUUCAGAUUUCCAAAAUUUCACUCAUACAAGGGAAGAGACUCCAUUUAGCUUAACGGUAGUCUUUAGA,0.322
GGGUCUGCAGGUGUCACAUGAUCACAGUUCAGCGGGAGGCUUUCCGUACCCACACUGGCUGUAGCCACUUCAGUCCAUCUGCCCUCCAGAGGAGGGGUUUCUUCCUGAUU,0.298
CCUCUUUUCCGUCUCAAAGGAAGCUAACAUCUCAGGCACAGACAUAGCCAAAAGUCCAUACACCCAUUGCCAGGCACUCCCAUAAGUCACAUGUGAAUUUUCUCUACACA,0.51
UUCUUAACCUGGCUUAAAUCACCUUCAUUUUUCCAGUCAUCCUUAGAGCCGUCACCCUGUGUGAAGGUGCCUUACUUUGUAGGACAGGAUGUGGAUGUCAGUUUGUACAA,0.278
ACAUGCGGGGACGGUCUCAAAUGCGUGAUCAGAGAAUCCUUCACCUUUGCUGAAAAGUGAGCUCAGAUCCAGCACCAUGUUCCUCCUGACCCAUCCUGUCUAUCUUCUCA,0.397
CGCCAGGCCCGCGCCAGCUGAGGCCUCAGACUAGCCAGGCAAGAGCCGUCUGACCAGUUGGCUGGCGGUGGUUCUGGUGGAGCACGAGGGAGCCCGGGUGGUGCCCUGAG,0.356

# Other studies, line by line
Sequence,target,test,test system,setting,how to read,quantity,value
HTYHWANVHDDPQAR,"UDP-N-acetylglucosamine--peptide N-acetylglucosaminyltransferase 110 kDa subunit (OGT, Homo sapiens, UniProt O15294)","binding, phage display NGS",peptide,concentration not given,reference: input library,enrichment fold change,2.6

# Excerpt of the above (sample 2):
Substitution,binding fitness
S47N,-1.29 natural log
V56K,-1.51 natural log
A29Q,-1.22 natural log
